Results pooled from the literature.
Protocols differ between the studies behind these lines.

SMILES | target | test | system | conditions | inhibition
c1ccc(C(NCCNC(c2ccccc2)c2ccccc2)c2ccccc2)cc1 | insulin receptor (rat) | – | – | 10 µM | 0%
CC1(C)CN(C(=O)c2ccc(-c3cccc4nc(NC(=O)C5CC5)nn34)cc2)C1 | NLRP3 inflammasome | – | – | 10 µM | 43%
O=C(Cc1ccc(I)cc1)N[C@H]1CCOC1=O | ExpR1 (Pectobacterium carotovorum) | cellulase activity, antagonist | Pectobacterium carotovorum, single-ExpR1 strain | 5 µM, 4 h, with: OHHL 5 µM | 73%
Cn1c(=O)n(-c2ccc(C(C)(C)C#N)cc2)c2c3cc(-c4cnc5ccccc5c4)ccc3ncc21 | NLRP3 inflammasome | – | – | 10 µM | -9.43%
C[C@H](C(=O)N[C@H]1COc2ccccc2[C@@H]1S(C)(=O)=O)c1ccc(F)cc1 | L-type calcium channel, rat, Benzothiazepine site | binding | – | 10 µM, Eurofins selectivity panel | 3%
CCCCCC(=O)N[C@H]1CCOC1=O | ExpR1 (Pectobacterium carotovorum) | cellulase activity, antagonist | Pectobacterium carotovorum, single-ExpR1 strain | 5 µM, 4 h, with: OHHL 5 µM | 67%
O=C(Nc1cccnn1)N1CCN([C@@H]2CCOc3cc(C(F)(F)F)ccc32)CC1 | L-type calcium channel, dihydropyridine site | binding | – | 20 µM | -10%
CSc1cccc(CC(=O)N[C@H]2CCOC2=O)c1 | ExpR1 (Pectobacterium carotovorum) | cellulase activity, antagonist | Pectobacterium carotovorum, single-ExpR1 strain | 5 µM, 4 h, with: OHHL 5 µM | 79%
CC(C)CC(=O)OC[C@H]1O[C@@](C#N)(c2ccc3c(N)ncnn23)[C@H](O)[C@@H]1O | AMPA glutamate receptor rat | radioligand binding | – | 20 µM | -3%

For quick reference, copied from above:
SMILES | target | test | system | conditions | inhibition
CCCCCC(=O)N[C@H]1CCOC1=O | ExpR1 (Pectobacterium carotovorum) | cellulase activity, antagonist | Pectobacterium carotovorum, single-ExpR1 strain | 5 µM, 4 h, with: OHHL 5 µM | 67%
